Assay results of several laboratories.
± gives the spread as reported.
Sequence of UniProt P06276 (whole entry, looked up): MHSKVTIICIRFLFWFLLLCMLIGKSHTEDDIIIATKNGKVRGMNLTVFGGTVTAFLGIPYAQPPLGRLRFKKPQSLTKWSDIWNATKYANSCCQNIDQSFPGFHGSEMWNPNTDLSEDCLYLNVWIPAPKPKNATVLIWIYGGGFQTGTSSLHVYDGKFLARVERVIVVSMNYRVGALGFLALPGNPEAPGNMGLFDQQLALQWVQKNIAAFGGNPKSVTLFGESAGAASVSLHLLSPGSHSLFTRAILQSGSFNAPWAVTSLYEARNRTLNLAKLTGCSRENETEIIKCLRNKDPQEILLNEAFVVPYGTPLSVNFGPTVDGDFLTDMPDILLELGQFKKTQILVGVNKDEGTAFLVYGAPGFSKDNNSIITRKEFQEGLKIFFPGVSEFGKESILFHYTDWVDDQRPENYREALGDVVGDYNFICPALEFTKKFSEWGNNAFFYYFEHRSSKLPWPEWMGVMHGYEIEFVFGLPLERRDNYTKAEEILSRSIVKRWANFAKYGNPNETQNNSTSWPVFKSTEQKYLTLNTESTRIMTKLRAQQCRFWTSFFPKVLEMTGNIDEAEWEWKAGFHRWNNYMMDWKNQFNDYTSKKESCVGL

SMILES	target or system	test	system	conditions	scale	endpoint	value
Cc1cc(C)c(CNC(=O)c2cc(Cl)c3c(c2C)O[C@@](C)([C@H]2CC[C@H](N(C)C)CC2)O3)c(=O)[nH]1	–	–	human, relapsed/refractory NHL	concentration not given, all TEAEs, grade 5	–	Constipation incidence	0%
O[C@H]1CCCN[C@@H]1CCCn1cnc2c(Cl)c(Cl)ccc21	–	–	healthy humans, plasma	oral, 150 mg, with: pirfenidone 600 mg	–	Cmax at steady state	326 ng/mL
CN1CC[C@@H](c2c(O)cc(O)c3c(=O)cc(-c4ccc(C(F)(F)F)cc4Cl)oc23)[C@@H]1CO	–	refers to: Thrombocytopenia	relapsed or refractory haematological malignancies	oral, dose not given, grade 3 to 4	–	adverse event incidence	7.5%
CO[C@H]1C[C@@H]2CC[C@@H](C)[C@@](O)(O2)C(=O)C(=O)N2CCCC[C@H]2C(=O)O[C@H]([C@H](C)C[C@@H]2CC[C@@H](OC(=O)NCCOCCOCCOCCOCCOCCOCCOCCOCCC(=O)N3CCc4cc(Cn5nc(-c6ccc7oc(N)nc7c6)c6c(N)ncnc65)ccc4C3)[C@H](OC)C2)C[C@@H](O)[C@H](C)/C=C(\C)[C@@H](O)[C@@H](OC)C(=O)[C@H](C)C[C@H](C)/C=C/C=C/C=C/1C	–	–	patients with advanced solid tumours	intravenous, 6 mg weekly, grade 3 or higher	–	headache incidence	0%
C[C@]1(CO)Cc2ncn(-c3ccc(C#N)c(Cl)c3)c2C(=O)O1	–	–	healthy humans	10 mg, fasted	–	drug-related Dizziness incidence	0%
COc1cc2c(Oc3ccc4[nH]c(C)cc4c3F)ccnc2cc1OCC1(N)CC1	–	–	paediatric recurrent refractory sarcoma	8 mg	–	grade 3 Proteinuria	0%
COc1cc2c(cc1OC)CN(CCc1ccc(NC(=O)c3cccc4c(=O)c5cccc(OC)c5[nH]c34)cc1)CC2	–	–	CD-1 mouse, male, plasma	intraperitoneal, 10 mg/kg	–	Tmax	6 h
N=c1c2c(-c3ccccc3)c(-c3ccccc3)n(Cc3ccccc3)c2ncn1[C@H]1CC[C@H](O)CC1	–	–	Sprague-Dawley rat, male, bile-duct cannulated, urine	intravenous, 1 mg/kg, 0-48 h	baseline: dose	unchanged drug excreted in urine	< 1%
CC[C@H](C)[C@H](NC(=O)[C@H](Cc1ccc(O)cc1)NC(=O)[C@@H]1CCCN1C(=O)[C@H](CCCNC(=N)N)NC(=O)[C@@H](N)CCCNC(=N)NC(=O)NCCOCCOCCNC(=O)CCCCCN1\C(=C/C=C/C=C/C2=[N+](CCCCS(=O)(=O)[O-])c3ccccc3C2(C)C)C(C)(C)c2ccccc21)C(=O)N[C@@H](CC(C)C)C(=O)O	–	–	PBS	pH 7.4	baseline: cresyl violet perchlorate	fluorescence quantum yield	28%
O=C(O)CCC(CP(=O)(O)O)C(=O)O (stereo not drawn)	–	–	rat plasma	0.3 µg/mL, -80 °C, freeze-thaw cycle 1	–	measured concentration	0.349 ± 0.005 µg/mL
Cc1c(NC(=O)c2cc3c(s2)CCCC3)cccc1-c1cn(C)c(=O)c(Nc2ccc(C3C(=O)N(C)CCN3C)cc2)n1 (racemic)	Cholinesterase (BCHE, Homo sapiens, UniProt P06276)	inhibitor, fluorometric	–	–	–	IC50	13.8 ± 6.37 µM
C[C@@H](NC(=O)N1C(=O)[C@H](Cc2ccnc(N)c2)[C@H]1C(=O)O)C1CCCCC1	–	–	healthy adult Chinese volunteers	continuous intravenous infusion, 1.5 mg/kg/h, 5-day infusion, CTCAE 5.0 grading	–	incidence of urine leukocyte esterase positive	0%
COc1ccc(-c2c(-c3ccc(C#N)c(F)c3)nc(N3CCC(N)CC3)n(C)c2=O)cc1F	–	refers to: Fatigue/asthenia	relapsed/refractory marginal zone lymphoma patients	oral, 60 mg, grade 3 to 4, dose expansion	–	treatment-related adverse event incidence	0%
CC[C@H](C)[C@H](NC(=O)[C@H](Cc1ccccc1)NC(=O)[C@H](CCC(=O)O)NC(=O)[C@H](CCCNC(=N)N)NC(=O)[C@H](C)NC(=O)[C@H](C)NC(=O)[C@H](CCC(N)=O)NC(=O)[C@H](CCC(=O)O)NC(=O)[C@H](CCC(=O)O)NC(=O)[C@H](CC(C)C)NC(=O)[C@H](Cc1ccc(O)cc1)NC(=O)[C@H](CO)NC(=O)[C@H](CO)NC(=O)[C@@H](NC(=O)[C@H](CC(=O)O)NC(=O)[C@H](CO)NC(=O)[C@@H](NC(=O)[C@H](Cc1ccccc1)NC(=O)[C@@H](NC(=O)CNC(=O)[C@H](CCC(=O)O)NC(=O)[C@H](C)NC(=O)CCc1cnc[nH]1)[C@@H](C)O)[C@@H](C)O)C(C)C)C(=O)N[C@@H](C)C(=O)N[C@@H](Cc1c[nH]c2ccccc12)C(=O)N[C@@H](CC(C)C)C(=O)N[C@H](C(=O)N[C@@H](CCCNC(=N)N)C(=O)NCC(=O)N[C@@H](CCCNC(=N)N)C(=O)N[C@@H](CCCCNC(=O)COCCOCCNC(=O)COCCOCCNC(=O)CC[C@H](NC(=O)CCCCCCCCCCCCCCCCC(=O)O)C(=O)O)C(=O)NCC(=O)NCC(=O)N[C@@H](CO)C(=O)N[C@@H](CCCCNC(=O)[C@H](CCCCNC(=O)[C@H](CCCCNc1c(NCCCCCN(O)C(=O)CCC(=O)NCCCCCN(O)C(=O)CCC(=O)NCCCCCN(O)C(C)=O)c(=O)c1=O)Nc1c(NCCCCCN(O)C(=O)CCC(=O)NCCCCCN(O)C(=O)CCC(=O)NCCCCCN(O)C(C)=O)c(=O)c1=O)NC(=O)[C@H](CCCCNc1c(NCCCCCN(O)C(=O)CCC(=O)NCCCCCN(O)C(=O)CCC(=O)NCCCCCN(O)C(C)=O)c(=O)c1=O)Nc1c(NCCCCCN(O)C(=O)CCC(=O)NCCCCCN(O)C(=O)CCC(=O)NCCCCCN(O)C(C)=O)c(=O)c1=O)C(=O)O)C(C)C [zirconium-89 labelled]	–	ex vivo gamma counting	male Sprague-Dawley rat, femur	intravenous, 1 nmol, 24 h	–	tissue uptake	0.352 %ID/g
CN[C@H]1CC[C@@H](c2ccc(Cl)c(Cl)c2)c2ccccc21	–	–	CD-1 mouse, male, lung	intraperitoneal, 1 mg/kg	–	elimination rate constant	5.78e-05 s⁻¹
CC[C@H]1[C@@H](O)[C@@H]2[C@H](CC[C@]3(C)[C@@H]([C@H](C)CCNC(=O)NS(=O)(=O)c4ccc(C(C)(C)C)cc4)CC[C@@H]23)[C@@]2(C)CC[C@@H](O)C[C@@H]12	–	–	human	dose not given, with oral contraceptive	–	subjects with TEAEs	45.2%
Cc1cccc(Cn2nc(C3CC3)c3c(NC(=O)c4cnc5cc(OCCN6CCN(C)CC6)ccn45)cccc32)n1	–	refers to: Anemia	human advanced solid tumours	oral, 400 mg, all-causality	–	adverse events incidence	57.1%
CNC(=O)c1cc(Oc2ccc(NC(=O)Nc3cc(C(C)(C)C)nn3-c3ccc4ncccc4c3)c(F)c2)ccn1	–	any related SAE, NCI CTC v3.0	human patients	oral, 300 mg twice daily, dose at onset	–	related SAE	25%

SMILES	target or system	test	system	conditions	scale	endpoint	value
CC(C)C[C@@H]1NC(=O)CNC(=O)[C@H](CC(N)=O)NC(=O)[C@H](CCCNC(=N)N)NC(=O)[C@H]([C@@H](C)O)NC(=O)[C@@H]2CSSC[C@@H]3NC(=O)[C@H]([C@@H](C)O)NC(=O)[C@H](CCCCN)NC(=O)CNC(=O)[C@H](C(C)C)NC(=O)[C@@H]4CSSC[C@H](NC(=O)[C@H]([C@@H](C)O)NC(=O)[C@H](CSSC[C@H](NC(=O)[C@H](C(C)C)NC(=O)[C@@H]5CCCN5C1=O)C(=O)NCC(=O)N[C@@H](CCC(=O)O)C(=O)N[C@@H]([C@@H](C)O)C(=O)N4)NC(=O)CNC(=O)[C@@H]1CCCN1C(=O)[C@H]([C@@H](C)O)NC(=O)[C@H](CC(N)=O)NC3=O)C(=O)N[C@@H](CO)C(=O)N[C@@H](Cc1c[nH]c3ccccc13)C(=O)N1CCC[C@H]1C(=O)N[C@@H](C(C)C)C(=O)N2	–	HPLC	water	180 µM, 14 days, 37 °C, deamidation stability	–	remaining peptide	99.7 ± 0.4%
O=C(O)CCCOc1ccc(F)cc1-c1cc(-c2ccccc2C(F)(F)F)n(-c2ccccc2)n1	–	refers to: Neutrophils	Crl:CD(SD) rats, female, blood	iv, 25 µg/kg, 1 day	–	leukocyte differential	15.3 ± 3.9%
N[C@@H](Cc1ccc(O)c(O)c1)C(=O)O	–	–	human, plasma	oral, dose not given, carbidopa/levodopa every 3 h, with: opicapone	baseline: after over before opicapone	fluctuation index ratio	0.68
COc1ccc2c(c1OC)C(=O)OC2C1c2cc3c(cc2CCN1C)OCO3 (single isomer, unassigned; (+))	Plasmodium falciparum	–	W2	–	–	IC50	5.01 µM
Nc1ccc2cc3ccc(N)cc3nc2c1	–	–	male CD-1 mouse, lungs	oral, 100 mg/kg	–	AUC(0-t)	18800 ng·h/mL
CC(C)C[C@@H]1NC(=O)[C@H](CC(C)C)NC(=O)[C@H](Cc2c[nH]c3ccccc23)NC(=O)[C@H](CO)NC(=O)[C@H](Cc2c[nH]c3ccccc23)NC(=O)[C@@H]2CCCN2C(=O)[C@H](CC(C)C)NC(=O)[C@H](Cc2c[nH]cn2)NC(=O)[C@@H]2CCCN2C(=O)[C@H](CC(N)=O)NC(=O)[C@H](C)NC(=O)[C@H](Cc2ccc(O)cc2)NC(=O)[C@H](CS)NC(=O)[C@H](CCCCNC(=O)CN2CCN(CC(=O)O)CCN(CC(=O)O)CCN(CC(=O)O)CC2)NC1=O [lutetium-177 labelled]	–	radio-HPLC	human serum	24 h	–	remaining intact	> 97%
C=C(CN(C(=O)c1c(C(F)F)nn(C)c1F)C1CC1)c1ccc(Cl)cc1Cl	–	static acute toxicity test	zebrafish (Brachydanio rerio)	0.482 mg a.i./L, 48 h	–	mortality	0%
CC(C)[C@H](O)C(=O)N[C@H]1Cc2ccc3c(c2)[C@]2(C4=C(c5nc(CO)co5)N=C(O4)[C@H](C(C)(C)C)NC1=O)c1cc(F)ccc1N[C@@H]2O3	–	–	NSG mice, plasma	intravenous, 10 mg/kg, single dose at MTD, with: paclitaxel 40 mg/kg	–	terminal half-life	5.8 h
NC(=O)[C@H]1CCN(c2ncnc(N)c2F)C[C@@H]1N1CCC[C@@H](Nc2cc(Cl)cc(C(F)(F)F)c2)C1=O	–	–	B-cell malignancy patients	oral, 20.5 mg twice daily, dose	–	grade ≥3 leukopenia	33%
CNc1cc(-c2ccnc(Nc3ccc(N4CCN(C)CC4)c(C(F)(F)F)c3)n2)ccn1	–	–	zebrafish embryos	25 µM, 5 d	–	toxicity	0%
CCCC1O[C@@H]2C[C@H]3[C@@H]4CCC5=CC(=O)C=C[C@]5(C)[C@H]4[C@@H](O)C[C@]3(C)[C@]2(C(=O)CO)O1 (stereo partly drawn)	Plasmodium falciparum	–	7G8	–	–	IC50	1.58 µM
O=S(=O)(Nc1ccccc1)c1ccc(NC(=S)Nc2ccccc2)cc1	–	–	female mouse, blood	oral, 20 mg/kg daily, 14 days	–	haematocrit	42.4%
C[C@]1(O)C[C@@](N)(c2ccc(-c3nc4n(c3-c3ccccc3)COc3ccncc3-4)cc2)C1	–	–	human, advanced or metastatic solid tumours	16 mg once daily, phase I dose escalation	–	patients with grade ≥3 TEAE	66.7%
CCN(CCO)CCCC(C)Nc1ccnc2cc(Cl)ccc12 (stereo not drawn)	–	–	newly diagnosed glioblastoma patients	oral, 800 mg/dose, grade 4, with: radiotherapy and temozolomide	–	white cell decrease patients	66%
COc1ccnc(C(=O)N[C@H]2COC(=O)[C@H](Cc3ccccc3)[C@@H](OC(=O)C(C)C)[C@H](C)OC2=O)c1OCOC(=O)C(C)C	–	–	bovine milk	-18 °C	–	storage stability of residues	9 months
CNC(=O)[C@@H](NC(=O)c1cc(OCC2(C)COC2)c(C2CC2)cn1)C(C)(C)C	–	–	C57BL/6 mice	oral, 2.8 mg/kg	–	dose-normalised AUC(0-inf)	70 kg·ng·h/mL/mg
CSCC[C@@H]1NC(=O)[C@H](Cc2c[nH]c3ccccc23)NC(=O)[C@@H](NC(=O)CCNC(=O)[C@H](CCC(N)=O)NC(=O)[C@@H]2CCCN2C(=O)[C@@H]2CCCN2C(=O)[C@H](CCCNC(=N)N)NC(=O)[C@H](CCCNC(=N)N)NC(=O)[C@H](CCCNC(=N)N)NC(=O)[C@H](CCC(N)=O)NC(=O)[C@H](CCCNC(=N)N)NC(=O)[C@H](CCCNC(=N)N)NC(=O)[C@H](CCCCN)NC(=O)[C@H](CCCCN)NC(=O)[C@H](CCCNC(=N)N)NC(=O)CN)CSSC[C@@H](C(=O)O)NC(=O)[C@H]([C@@H](C)O)NC(=O)CNC(=O)[C@H](CC(C)C)NC(=O)[C@H](Cc2c[nH]cn2)NC(=O)[C@H](CCCNC(=N)N)NC(=O)[C@@H]2CCCN2C(=O)[C@H](CO)NC1=O	–	competitive EIA	human, plasma	35 mg, median and quartile range	–	elimination rate constant	9.17e-05 ± 0.000108 s⁻¹
O=C1Nc2cc3[nH]nc(-c4ccncc4)c3cc2CN1Cc1ccccc1	–	CTCAE v4.03	advanced solid tumour patients	intravenous, 7.2 mg/kg	–	patients with infusion reaction	33%

Excerpt of the above:
SMILES	target or system	test	system	conditions	scale	endpoint	value
CC(C)C[C@@H]1NC(=O)CNC(=O)[C@H](CC(N)=O)NC(=O)[C@H](CCCNC(=N)N)NC(=O)[C@H]([C@@H](C)O)NC(=O)[C@@H]2CSSC[C@@H]3NC(=O)[C@H]([C@@H](C)O)NC(=O)[C@H](CCCCN)NC(=O)CNC(=O)[C@H](C(C)C)NC(=O)[C@@H]4CSSC[C@H](NC(=O)[C@H]([C@@H](C)O)NC(=O)[C@H](CSSC[C@H](NC(=O)[C@H](C(C)C)NC(=O)[C@@H]5CCCN5C1=O)C(=O)NCC(=O)N[C@@H](CCC(=O)O)C(=O)N[C@@H]([C@@H](C)O)C(=O)N4)NC(=O)CNC(=O)[C@@H]1CCCN1C(=O)[C@H]([C@@H](C)O)NC(=O)[C@H](CC(N)=O)NC3=O)C(=O)N[C@@H](CO)C(=O)N[C@@H](Cc1c[nH]c3ccccc13)C(=O)N1CCC[C@H]1C(=O)N[C@@H](C(C)C)C(=O)N2	–	HPLC	water	180 µM, 14 days, 37 °C, deamidation stability	–	remaining peptide	99.7 ± 0.4%
O=C(O)CCCOc1ccc(F)cc1-c1cc(-c2ccccc2C(F)(F)F)n(-c2ccccc2)n1	–	refers to: Neutrophils	Crl:CD(SD) rats, female, blood	iv, 25 µg/kg, 1 day	–	leukocyte differential	15.3 ± 3.9%
N[C@@H](Cc1ccc(O)c(O)c1)C(=O)O	–	–	human, plasma	oral, dose not given, carbidopa/levodopa every 3 h, with: opicapone	baseline: after over before opicapone	fluctuation index ratio	0.68
